Experimental data pooled from the literature.
Lines come from different studies, so protocols differ. Numbers after ± are the reported error.

| Structure (SMILES) | tested on | test | test system | conditions | scale | endpoint | result |
| --- | --- | --- | --- | --- | --- | --- | --- |
| CC(=O)N[C@@H](CC1CCCCC1)C(=O)N[C@H]1CSSC[C@@H](C(=O)N[C@@H](CCCNC(=N)N)C(N)=O)NC(=O)[C@H](CC2CCCCC2)NC(=O)[C@H](CCCNC(=N)N)NC(=O)[C@H](CCCNC(=N)N)NC(=O)[C@H](CC2CCCCC2)NC(=O)[C@H](CC(C)C)NC(=O)[C@H](CCCNC(=N)N)NC(=O)[C@@H](NC(=O)[C@H](CC2CCCCC2)NC(=O)c2ccc3c(c2)C(=O)OC32c3ccc(N(C)C)cc3Oc3cc(N(C)C)ccc32)CSSC[C@@H](C(=O)N[C@@H](CCCNC(=N)N)C(N)=O)NC(=O)[C@H](CC2CCCCC2)NC(=O)[C@H](CCCNC(=N)N)NC(=O)[C@H](CCCNC(=N)N)NC(=O)[C@H](CC2CCCCC2)NC(=O)[C@H](CC(C)C)NC(=O)[C@H](CCCNC(=N)N)NC1=O | human tubular epithelial cells | cell penetration, flow cytometry |  | 3 h |  | EC50 | 0.02 µM |
| [Cl-].[Cl-].[Ru+2].c1cc(-c2ccc3cccnc3n2)nc(-c2ccc3cccnc3n2)c1.c1ccc2cc3nc4c5cccnc5c5ncccc5c4nc3cc2c1 | B16-F10 | resazurin |  | together with: light 733 nm, 9 mW, 100 J/cm2 |  | EC50 | 54.1 µM |
| C[n+]1cc(/C=N/NC(=O)c2cc(C(=O)N/N=C/c3cc4ccccc4[n+](C)c3)ncn2)cc2ccccc21 | telomeric G4 DNA hybrid-2 | FRET melting |  | 1 µM, DNA 0.2 µM |  | ΔTm | 4.2 ± 0.6 °C |
| COC1CN([C@H]2CC[C@H]([C@@]3(C)Oc4c(Cl)cc(C(=O)NCc5c(SC)cc(C)[nH]c5=O)c(C)c4O3)CC2)C1 |  | RNA-seq, refers to: PXDC1 | human, whole blood | dose not given, 24 h | baseline: pretreatment baseline | log2 fold change | 1.28 |
| CC(C)c1ccc(N(C)c2ccc3c(c2)OCC[C@H]3CNc2cnccc2C(=O)O)cc1 | HCC1937 | apoptosis, refers to: caspase-3/7 |  | 72 h | baseline: panobinostat | EC50 | > 100 µM |
| CC(C)C[C@@H](/C=C/[C@H](Cc1ccccc1)C(=O)N1CCC[C@H]1C(=O)N[C@H](C(=O)N[C@@H](CCCNC(=O)OCc1ccccc1)C(=O)NC1CC(C)(C)N([O])C(C)(C)C1)C(C)C)NC(=O)OCC[S+]([O-])CC1(C)COC1 (stereo partly drawn) | BJeLR | protection from ferroptosis, PrestoBlue |  | 24 h, together with: erastin 10 µM |  | EC50 | 2.89 µM |
| Cc1ncsc1-c1ccc(C(C)NC(=O)C2CC(O)CN2C(=O)C(NC(=O)CCCCCCCCCCN2CCCC(Nc3ncc(Cl)c(Nc4ccccc4S(=O)(=O)C(C)C)n3)C2)C(C)(C)C)cc1 (stereo not drawn) | 22Rv1 | RNA-seq, refers to: PPP1R3D mRNA |  | concentration not given | baseline: DMSO | log2 fold change | -1.95 |
| C=C(NC(=O)c1csc(-c2ccc(NC(=O)CCCCCBr)cc2)n1)C(=O)NC(=C)C(=O)OC | NCI-H358 | cell viability |  |  |  | EC50 | 2.1 µM |
| Cc1nn(-c2cccc(N)c2)c(=O)c2cnc(Nc3ccc(N4CCNCC4)cc3)nc12 | ERBB2 (Homo sapiens, UniProt P04626) | enzyme activity, inhibitor |  |  |  | IC50 | > 10 µM |
| C=CC(=O)Nc1cccc(Cn2ncc3cnc(Nc4cnn(CCOC)c4)nc32)c1 | CAMK4 human | binding, KINOMEscan |  | 100 nM | lower = stronger binding | percent of control | 100% |
| Cc1cc(C)nc(NC(=S)N2CCN(c3ccncc3)CC2)c1 | MDA-MB-468 (high PHGDH) | cell viability, CellTiter-Glo |  | 4 days |  | EC50 | > 100 µM |
| NC(=O)c1nnn(Cc2cc(Cl)c(C(=O)c3ccc(Cl)cc3)c(Cl)c2)c1N | human iPSC-derived cardiomyocytes | calcium transient peak spacing, calcium transient |  | 15 min |  | EC50 | 2.1 µM |
| CC(C)C[C@@H](/C=C/CC(=O)N1CCC[C@H]1C(=O)N[C@H](C(=O)N[C@@H](CCCNC(=O)OCc1ccccc1)C(=O)NC1CC(C)(C)N([O])C(C)(C)C1)C(C)C)NC(=O)OC(C)(C)C | BJeLR | protection from ferroptosis, PrestoBlue |  | 24 h, together with: erastin 10 µM |  | EC50 | 0.368 µM |
| C=C(NC(=O)c1csc(-c2cccnc2)n1)C(=O)NC(=C)C(=O)OC | OCI | cell viability |  |  |  | EC50 | 1.2 µM |
| CC(C)(C)c1cc(-c2ccc3cccnc3n2)nc(-c2ccc3cccnc3n2)c1.COc1ccncc1.[Cl-].[Cl-].[Ru+2].c1ccc2cc3nc4c5cccnc5c5ncccc5c4nc3cc2c1 | B16-F10 | resazurin |  | together with: light 633 nm, 20 mW, 100 J/cm2 |  | EC50 | 2.12 ± 0.1 µM |
| CC(=O)[O-].O.O.O.O.[Mn+2].[O-]c1ccc(Br)cc1C=NCCN1CCOCC1 |  | FRAP |  | 200 µM |  | ferric reducing power | 45.4% |
| O=C(Nc1ccc(C(F)F)cc1)[C@H](CC1CCCCC1)Nc1nn2c(=O)ccnc2s1 | K562 p21-reporter | p21 reporter gene, activator |  |  |  | EC50 | 0.13 µM |
| Cc1nc(NCCOCCOCCNc2ncc(C(=O)NC3=NN(c4ccc(Cl)c(Cl)c4)CC3)c(C)n2)ncc1C(=O)NC1=NN(c2ccc(Cl)c(Cl)c2)CC1 | KYO1 | cell growth or viability, ATP luminescence |  | 72 h |  | EC50 | 0.04 µM |

Excerpt of the above:
| Structure (SMILES) | tested on | test | test system | conditions | scale | endpoint | result |
| --- | --- | --- | --- | --- | --- | --- | --- |
| C[n+]1cc(/C=N/NC(=O)c2cc(C(=O)N/N=C/c3cc4ccccc4[n+](C)c3)ncn2)cc2ccccc21 | telomeric G4 DNA hybrid-2 | FRET melting |  | 1 µM, DNA 0.2 µM |  | ΔTm | 4.2 ± 0.6 °C |
| COC1CN([C@H]2CC[C@H]([C@@]3(C)Oc4c(Cl)cc(C(=O)NCc5c(SC)cc(C)[nH]c5=O)c(C)c4O3)CC2)C1 |  | RNA-seq, refers to: PXDC1 | human, whole blood | dose not given, 24 h | baseline: pretreatment baseline | log2 fold change | 1.28 |
